Earlier results, collected from citations in different studies.
Compare with care: the assays were run in different laboratories.

C#C[C@]1(O)CC[C@H]2[C@@H]3CCC4=CC(=O)CC[C@@H]4[C@H]3CC[C@@]21C  AUC (human; oral, 0.3 mg): 22.1 ng·h/mL
Cc1cn(-c2cc(NC(=O)c3ccc(C)c(Nc4nccc(-c5cccnc5)n4)c3)cc(C(F)(F)F)c2)cn1  AUC (human; 400 mg): 17500 ng·h/mL
OC(Cn1cncn1)(Cn1cncn1)c1ccc(F)cc1F  AUC (human; oral, 50 mg single dose): 41700 ng·h/mL
CN(C)C/C=C/C(=O)Nc1cc2c(Nc3ccc(F)c(Cl)c3)ncnc2cc1O[C@H]1CCOC1  AUC (human; 40 mg): 631 ng·h/mL
Cc1cc2c(s1)Nc1ccccc1N=C2N1CCN(C)CC1  AUC (human; oral, 10 mg, day 1): 230 ng·h/mL
COc1cc(Nc2c(C#N)cnc3cc(OCCCN4CCN(C)CC4)c(OC)cc23)c(Cl)cc1Cl  AUC (human; 500 mg): 3660 ng·h/mL
O=C(c1cc(Cc2n[nH]c(=O)c3ccccc23)ccc1F)N1CCN(C(=O)C2CC2)CC1  AUC (human; oral, 100 mg tablet, single dose, together with: itraconazole 0 mg): 14800 ng·h/mL
CCC(C)n1ncn(-c2ccc(N3CCN(c4ccc(OCC5COC(Cn6cncn6)(c6ccc(Cl)cc6Cl)O5)cc4)CC3)cc2)c1=O (centres unmarked)  AUC (human; oral, 200 mg single dose): 1820 ng·h/mL
COc1ccc2[nH]c([S+]([O-])Cc3ncc(C)c(OC)c3C)nc2c1 (centres unmarked)  AUC (human post-RYGB patients; oral tablet, 20 mg once daily, day 6, 1 months after surgery): 688 ng·h/mL
Nc1cc(C(F)(F)F)c(-c2nc(N3CCOCC3)nc(N3CCOCC3)n2)cn1  GI50 (SW48): 175 nM
COCCCC/C(=N\OCCN)c1ccc(C(F)(F)F)cc1  AUC (human; oral, 25 mg single dose): 98.4 ng·h/mL

Excerpt of the above:
COCCCC/C(=N\OCCN)c1ccc(C(F)(F)F)cc1  AUC (human; oral, 25 mg single dose): 98.4 ng·h/mL
